Results from different studies.
Parts stem from different laboratories: compare values within a part only. Substitutions count along the parent as printed.

Study 1
Target: ATF3, bZIP domain (human)
Technique: DHFR protein complementation
Sample: yeast
Setting: single substitutions, most at no-binding floor
Relative to: wild-type JUN-FOS pair
Direction: higher = stronger binding
Quantity: binding fitness
Starting sequence: JUN, bZIP domain (human); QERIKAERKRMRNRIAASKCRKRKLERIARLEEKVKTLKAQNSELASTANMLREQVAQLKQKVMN; partner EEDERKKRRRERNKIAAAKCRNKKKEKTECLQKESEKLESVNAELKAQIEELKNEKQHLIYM
K39V: -0.379 natural log
L31N: -0.81 natural log
L31C: -0.677 natural log
N42P: -1.36 natural log
T48C: -0.154 natural log
K34L: -0.283 natural log
K36E: -0.0964 natural log
R30D: -0.059 natural log
V35A: -0.849 natural log
N42T: -0.639 natural log
K39A: -0.372 natural log
L52W: -1.08 natural log
Q41P: -1.48 natural log
A29P: -0.437 natural log
E32M: -0.371 natural log
E54T: -0.22 natural log
A40C: -0.298 natural log
E32H: -0.352 natural log
A57Q: -0.231 natural log

Study 2
Target: Prothrombin, mature alpha-thrombin (F2, Homo sapiens, UniProt P00734)
Technique: aptamer microarray, sandwich
Form: DNA with 2'F-ANA
Sample: in vitro
Tested at: 200 nM
Setting: whole 15-mer aptamer, many near background
Together with: Cy3 exosite-II aptamer, 400 nM
Direction: higher = stronger binding
Quantity: mean fluorescence intensity
Strand: GGTTGGTGTGGTTGG
2'F-ANA at 1 2 4 8 9 10 11 12 13 14 15: 52.9 a.u.
2'F-ANA at 2 5 8 11 14 15: 45.6 a.u.
2'F-ANA at 1 3 5 6 7 8 9 11 12 13 14 15: 54.7 a.u.
2'F-ANA at 2 5 7 9 11 14 15: 48.4 a.u.
2'F-ANA at 1 2 3 5 7 8 11: 54.4 a.u.
2'F-ANA at 1 8 10 12: 69.8 a.u.
2'F-ANA at 1 6 7 11 12 14 15: 67.7 a.u.
2'F-ANA at 1 3 5 6 7 8 11 12 13 15: 86.2 a.u.
2'F-ANA at 3 5 7 10 11 12: 65.5 a.u.
2'F-ANA at 2 3 4 5 7 9 12: 196 a.u.
2'F-ANA at 4 5 6 8 9 14: 45.9 a.u.
2'F-ANA at 6 8 9 13 14 15: 153 a.u.
2'F-ANA at 2 4 5 6 7 8 9 11 12 13: 89.1 a.u.
2'F-ANA at 5 8 9 10 12 13 14 15: 51.5 a.u.
2'F-ANA at 2 3 4 6 8: 638 a.u.
2'F-ANA at 1 3 4 6 7 9 11 14 15: 83.9 a.u.
2'F-ANA at 1 3 5 6 7 8 11: 62.2 a.u.
2'F-ANA at 4 5 7 9 10 11 14 15: 51.9 a.u.
2'F-ANA at 2 3 9 10 11 12 14: 291 a.u.
2'F-ANA at 1 3 4 5 9 11 12 13 14 15: 51 a.u.
2'F-ANA at 2 9 10 11 12 13: 151 a.u.
2'F-ANA at 8 9 10 13 15: 147 a.u.
2'F-ANA at 5 6 8 11 12 13: 109 a.u.
2'F-ANA at 2 4 6 8 9 12 13 14: 81.4 a.u.
2'F-ANA at 1 5 6 9 10 11 12 13 14: 47.3 a.u.

Study 3
Target: CCND1, cyclin fold, Cln2 fusion (human)
Technique: yeast growth competition, sequencing
Sample: yeast
Setting: weak parent motif
Relative to: not given
Direction: higher = stronger binding
Quantity: normalised enrichment score
Starting sequence: WEE1 docking peptide (human); CTLRQKLIFSPCS
S13A: 0.0213
L7A: -0.104
L3A: 0.491
I8A: 0.384
S10A: 0.0816
Q5A: 0.383
T2A: 0.000509

Study 4
Target: Centromere-binding protein 1, full length, N-terminal tag (CBF1, Saccharomyces cerevisiae, UniProt P17106, residues 1-351)
Chain of UniProt P17106 (whole entry, looked up): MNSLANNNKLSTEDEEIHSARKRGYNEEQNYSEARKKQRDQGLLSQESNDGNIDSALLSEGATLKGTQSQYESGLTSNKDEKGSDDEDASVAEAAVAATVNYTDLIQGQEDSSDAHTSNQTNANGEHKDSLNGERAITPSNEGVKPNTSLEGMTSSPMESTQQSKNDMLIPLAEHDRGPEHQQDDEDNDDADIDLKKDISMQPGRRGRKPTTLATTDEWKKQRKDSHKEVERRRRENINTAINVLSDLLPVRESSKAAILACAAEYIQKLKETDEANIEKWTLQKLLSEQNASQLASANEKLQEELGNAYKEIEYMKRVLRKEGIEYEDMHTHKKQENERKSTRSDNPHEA
Technique: protein-binding microarray
Form: double-stranded DNA, one strand shown
Sample: in vitro
Tested at: 0.8 µM
Setting: whole 60-bp probe, no competitor
Direction: higher = stronger binding
Quantity: fluorescence intensity
Shared flanks, not repeated: … GTCTTGATTCGCTTGACGCTGCTG
CCTAACTACTATACTGTCGTGACATAGCTTCGTACA: 641 a.u.
CTAAACGAAACAAATCATGTGTTACCCGTCCTGTTC: 1020 a.u.
CTAAAGAAATTGATTCTGATGCTTTATTTTTTATTC: 498 a.u.
TGTACGAAGCTATCGCTCGTGGTTATAGTAGTTAGG: 545 a.u.
GAATACACAATGTTTCTCGTGGTACAGTTTCGATAG: 563 a.u.
GAATACATACGTACTCTCGTGCAAGGAAAAATATAG: 648 a.u.
CCTAACTACTATATTCATCTGATATAGCTTCGTACA: 556 a.u.
GAATTTTTGCATCATCATGATCATACATGCTTTTAG: 594 a.u.
GAAAATATCGCGAACCGCGTGAAGTGGCTTAGTTAG: 486 a.u.
GAATCTGCTACATATCGTGAGGTACGAATATCGTAG: 534 a.u.
CTAGGGCAGATACTTCGTGTGACAATGGCCAATTTC: 508 a.u.
GAAATACTATTAATCTGTGTTTATGCCACCTGATAG: 618 a.u.
CCTAACTACTATATCCACGTGCTATAGCTTCGTACA: 4500 a.u.
TGTACGAAGCTATCCATCGTGGATATAGTAGTTAGG: 508 a.u.
GAAATCTTACTGTACCCCGTGGAGAATTAACTGTAG: 656 a.u.
GAAAACAGAACATTTGGCCACGTGAACAGGTCATAG: 4540 a.u.
GAATTTTGGTAGCGCCGCGTGGGAAACAATGCATAG: 552 a.u.
CTATAAGCTTGGCGTGATGTGATATATACTTGTTTC: 630 a.u.
CTAATATACAAATATCACCTGTAATATATAAGATTC: 609 a.u.
CTAACTAGTGTAACTGCTGATGTCTTCCATTTGTTC: 522 a.u.

Study 5
Target: Ras GTPase-activating protein-binding protein 1, RRM domain (G3BP1, Homo sapiens, UniProt Q13283)
Chain of UniProt Q13283 (whole entry, looked up): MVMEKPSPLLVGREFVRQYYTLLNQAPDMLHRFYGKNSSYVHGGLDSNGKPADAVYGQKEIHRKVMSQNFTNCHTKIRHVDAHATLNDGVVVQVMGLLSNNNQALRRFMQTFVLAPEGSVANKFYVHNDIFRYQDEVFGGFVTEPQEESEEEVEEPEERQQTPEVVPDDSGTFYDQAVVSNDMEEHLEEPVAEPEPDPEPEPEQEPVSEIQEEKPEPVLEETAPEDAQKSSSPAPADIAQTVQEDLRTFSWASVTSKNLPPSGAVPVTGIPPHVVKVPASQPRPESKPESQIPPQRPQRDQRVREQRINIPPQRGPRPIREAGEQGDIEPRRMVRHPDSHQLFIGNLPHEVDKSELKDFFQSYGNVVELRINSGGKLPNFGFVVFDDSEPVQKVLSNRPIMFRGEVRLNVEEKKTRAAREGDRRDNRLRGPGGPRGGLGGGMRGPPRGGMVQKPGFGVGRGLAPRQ
Technique: RNA Bind-n-Seq
Form: RNA
Sample: in vitro
Tested at: 1 µM
Setting: whole 134-nt RNA, ends assumed
Together with: 150 mM KCl
Relative to: input library
Direction: higher = stronger binding
Quantity: log2 enrichment
Shared flanks, not repeated: GGGAGUUCUACAGUCCGACGAUC … UGGAAUUCUCGGGUGUCAAGG
UCAAGUCCUGUGCUACACAUCGUAUGUACCGAAUCGGGGUUGGGGUUGGGUUGGGAAAGUAUUAUGUUACGCCGUUCGGAUCUGCACUUC: 0.643
AGUCCUGUGCUACACAUCGUAUGUACCGAAUCGGGUGGGUUUUUGGGUUUUUUUGGGAAAGUAUUAUGUUACGCCGUUCGGAUCUGCACU: 0.343
CUCAAGUCCUGUGCUACACAUCGUAUGUACCGAAUCGGGGAAGGGAAGGAAGGGAAAGUAUUAUGUUACGCCGUUCGGAUCUGCACUUCC: -0.1
CCCGAGCCGGAGAGGGAGCGCGAGCCGCGCCGGCCCCGGUCGGGCCUCCGAAACCAUGAACUUUCUGCUGUCUUGGGUGCAUUGGAGCCU: -0.244
CUGUGCUACACAUCGUAUGUACCGAAUCGGGCCCCCCCGGCCCCCCCGGGGCCCCCCCGGGAAAGUAUUAUGUUACGCCGUUCGGAUCUG: -0.677
UGGGAGGUGGAUUUUGUUUAUUUUUUUAGCUCAUUUCCAGGGGCGGGAAUUUUUUUUUAAUAUGUGUCAUGAAUAAAGUUGUUUUUGAAA: 1.11
UCCUGUGCUACACAUCGUAUGUACCGAAUCGGGUUUUUUGGGGUUUUUUGGGUUUUUUGGAAAGUAUUAUGUUACGCCGUUCGGAUCUGC: -0.0979
UCCUGUGCUACACAUCGUAUGUACCGAAUCGGGGUUUGGGGAAAAAGGGGAAAAAGGGGAAAGUAUUAUGUUACGCCGUUCGGAUCUGCA: 1.15
GUCCUGUGCUACACAUCGUAUGUACCGAAUCGGGAAAAAAAGGGUUUGGGUUUUUGGGAAAGUAUUAUGUUACGCCGUUCGGAUCUGCAC: 0.185
GCAGGGAGUAAAAACAAAUGGAAAUGCUUCGGAUAGUGGCAGGGGUGGGGGUUGCUAAGGAAAGGGUGGGAUGGGAGUGGGUAAAGAGUU: 1.16
UCAAGUCCUGUGCUACACAUCGUAUGUACCGAAUCGGAAAGGGAAAGGGAAAGGAAAGUAUUAUGUUACGCCGUUCGGAUCUGCACUUCC: -0.182
AAGUCCUGUGCUACACAUCGUAUGUACCGAAUCGGGAAAGGGUUUGGGUUUUUGGGAAAGUAUUAUGUUACGCCGUUCGGAUCUGCACUU: 0.528
UGGGAGGUGGAUUUUGUUUAUUUUUUUAGCUCAUUUCCAGGGGUGGGAAUUUUUUUUUAAUAUGUGUCAUGACUAAAGUUGUUUUUGAAA: 1.4
CCUGUGCUACACAUCGUAUGUACCGAAUCGGCCCCCCCGGGCCCCCCCGGGGCCCCCCCGGAAAGUAUUAUGUUACGCCGUUCGGAUCUG: -0.585

Study 6
Target: ABI1, truncated, D143A, DHFR fusion (Arabidopsis thaliana)
Technique: DHFR PCA, deep sequencing
Sample: yeast
Setting: methotrexate growth selection, single substitutions
Together with: (+)-ABA 0.032 µM
Relative to: wild-type fitted maximum
Direction: higher = stronger binding
Quantity: relative binding score
Starting sequence: PYL1, truncated, DHFR fusion (Arabidopsis thaliana); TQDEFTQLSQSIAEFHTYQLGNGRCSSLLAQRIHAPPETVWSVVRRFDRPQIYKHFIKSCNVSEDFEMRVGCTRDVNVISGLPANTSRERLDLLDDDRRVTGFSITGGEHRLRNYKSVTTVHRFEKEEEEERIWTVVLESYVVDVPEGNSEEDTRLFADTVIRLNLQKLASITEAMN; partner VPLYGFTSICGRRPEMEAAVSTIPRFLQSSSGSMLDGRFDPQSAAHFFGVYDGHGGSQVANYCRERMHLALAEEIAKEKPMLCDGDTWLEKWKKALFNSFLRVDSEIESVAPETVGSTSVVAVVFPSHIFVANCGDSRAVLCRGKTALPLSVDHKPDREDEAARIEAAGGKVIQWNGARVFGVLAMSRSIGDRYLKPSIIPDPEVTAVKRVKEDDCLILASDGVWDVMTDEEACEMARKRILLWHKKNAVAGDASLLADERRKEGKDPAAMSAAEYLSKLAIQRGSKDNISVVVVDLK
T6K: 42%
V143T: 11.2%
N165H: 5.48%
L82I: 15.9%
F56C: -0.211%
K126D: 52.8%
V118K: -1.4%
T73A: 5.67%
S42H: 0.717%
E129N: 30%
L164H: 9.91%
P83E: 12.5%
G102H: -0.241%
A170R: 19.6%
D159Q: -1.32%
L94E: -1%
A158N: 15.6%
Q2C: 31.2%
L156M: 22.1%
A158F: 0.123%

Study 7
Target: Sal-like protein 4, full length isoform B (SALL4, Homo sapiens, UniProt Q9UJQ4-2, residues 1-616)
Technique: universal PBM
Form: double-stranded DNA, one strand shown
Sample: in vitro
Tested at: not given
Setting: 8-mer, flanks averaged, mean of replicates
Direction: higher = stronger binding
Quantity: E-score
GCCTAGGC: -0.222
GCACCTGA: 0.02
CAGCGCCA: -0.304
GACAGAAA: 0.109
AGCAATAG: 0.00421
AAATGCGG: -0.168
AAAAAATG: 0.354
CTAGTCAC: 0.067
GCAACGCA: -0.232
AAAGTCTC: -0.00825
GACACCTA: 0.101
CCAGGACC: -0.23
ATGTAGTC: 0.193
GACTCTCA: -0.068
CAGGAGAG: -0.169
CGGAGTAA: -0.105
CAGGTTTA: -0.0103
AAGGGTGC: -0.131
AAGAGTCT: 0.0544
CGGCAACC: -0.356
